# Assay results collected from several papers.
# Compare with care: the assays were run in different laboratories. Values joined by “and” are separate records of one study, mostly repeats; a detail may differ. ± marks the error that the study gave.
# MAP2K1: MAP2K1 (Homo sapiens, UniProt Q02750)
# IL13: IL13 fragment (Homo sapiens)
# Mcl1 152-308: Mcl1 152-308 (Mus musculus, UniProt P97287)
# Chain of UniProt P97287 (whole entry, looked up): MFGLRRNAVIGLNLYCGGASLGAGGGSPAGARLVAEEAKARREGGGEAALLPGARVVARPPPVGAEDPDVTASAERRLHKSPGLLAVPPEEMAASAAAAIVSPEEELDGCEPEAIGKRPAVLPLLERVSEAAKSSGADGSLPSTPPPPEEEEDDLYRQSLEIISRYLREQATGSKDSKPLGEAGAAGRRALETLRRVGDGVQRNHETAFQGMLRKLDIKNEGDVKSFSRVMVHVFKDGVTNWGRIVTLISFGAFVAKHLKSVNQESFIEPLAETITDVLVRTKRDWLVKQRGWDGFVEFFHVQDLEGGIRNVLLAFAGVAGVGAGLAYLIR
# B1: TEPSIN W188S/D189S/E190S/L191S (Homo sapiens, UniProt Q96N21); chain MAAAPPLRDRLSFLHRLPILLKGTSDDDVPCPGYLFEEIAKISHESPGSSQCLLEYLLSRLHSSSGHGKLKVLKILLYLCSHGSSFFLLILKRNSAFIQEAAAFAGPPDPLHGNSLYQKVRAAAQDLGSTLFSDTVLPLAPSQPLGTPPATGMGSQARPHSTLQGFGYSKEHGRTAVRHQPGQAGGGSSSSDSGPSSQNSSQNSDLSRVSDSGSHSGSDSHSGASREPGDLAERVEVVALSDCQQELSLVRTVTRGPRAFLSREEAQHFIKACGLLNCEAVLQLLTCHLRGTSECTQLRALCAIASLGSSDLLPQEHILLRTRPWLQELSMGSPGPVTNKATKILRHFEASCGQLSPARGTSAEPGPTAALPGPSDLLTDAVPLPGSQVFLQPLSSTPVSSRSPAPSSGMPSSPVPTPPPDASPIPAPGDPSEAEARLAESRRWRPERIPGGTDSPKRGPSSCAWSRDSLFAGMELVACPRLVGAGAAAGESCPDAPRAPQTSSQRTAAKEPPGSEPSAFAFLNA
# B2: BRAF kinase 448-723 K723G/P722S/S720E/L716E/S713E/Q709R/L706S/A688R/Y673S/K630S/V600E/L588N/Q562R/I551K (Homo sapiens, UniProt P15056); sequence looked up; chain DDWEIPDGQITVGQRIGSGSFGTVYKGKWHGDVAVKMLNVTAPTPQQLQAFKNEVGVLRKTRHVNILLFMGYSTKPQLAIVTQWCEGSSLYHHLHASETKFEMKKLIDIARQTARGMDYLHAKSIIHRDLKSNNIFLHEDNTVKIGDFGLATEKSRWSGSHQFEQLSGSILWMAPEVIRMQDSNPYSFQSDVYAFGIVLYELMTGQLPYSNINNRDQIIFMVGRGSLSPDLSKVRSNCPKRMKRLMAECLKKKRDERPSFPRILAEIEELARELSG
# B3: IgG L:I27A; V domains shown; VH QVQLVQSGAEVKKPGASVKVSCKASGYTFTNYGLSWVRQAPGQGLEWMGWISANNGDTNYGQEFQGRVTMTTDTSTSTAYMELRSLRSDDTAVYYCARDSSSSWARWFFDLWGRGTLVTVSS; VL SYVLTQPPSVSVAPGKTARITCGGNAIGSKLVHWYQQKPGQAPVLVIYDDGDRPSGIPERFSGSNSGNTATLTISRVEAGDEADYYCQVWDTGSDPVVFGGGTKLTVL
# B4: IgG; V domains shown; VH QVQLVQSGAEVKKPGASVKVSCKASGYTFTNYGLSWVRQAPGQGLEWMGWISANNGDTNYGQEFQGRVTMTTDTSTSTAYMELRSLRSDDTAVYYCARDSSSSWARWFFDLWGRGTLVTVSS; VL SYVLTQPPSVSVAPGKTARITCGGNIIGSKLVHWYQQKPGQAPVLVIYDDGDRPSGIPERFSGSNSGNTATLTISRVEAGDEADYYCQVWDTGSDPVVFGGGTKLTVL
# B5: EFR3A 721-791 (Homo sapiens, UniProt Q14156); chain SNTEEITFEALKKAIDTSGMEEQEKEKRRLVIEKFQKAPFEEIAAQCESKANLLHDRLAQILELTIRPPPS
# B6: BRAF kinase 442-724 V600E (Homo sapiens, UniProt P15056); sequence looked up; chain GRRDSSDDWEIPDGQITVGQRIGSGSFGTVYKGKWHGDVAVKMLNVTAPTPQQLQAFKNEVGVLRKTRHVNILLFMGYSTKPQLAIVTQWCEGSSLYHHLHIIETKFEMIKLIDIARQTAQGMDYLHAKSIIHRDLKSNNIFLHEDLTVKIGDFGLATEKSRWSGSHQFEQLSGSILWMAPEVIRMQDKNPYSFQSDVYAFGIVLYELMTGQLPYSNINNRDQIIFMVGRGYLSPDLSKVRSNCPKAMKRLMAECLKKKRDERPLFPQILASIELLARSLPKI
# B7: ANGPT1 283-498 (Homo sapiens, UniProt Q15389); chain FRDCADVYQAGFNKSGIYTIYINNMPEPKKVFCNMDVNGGGWTVIQHREDGSLDFQRGWKEYKMGFGNPSGEYWLGNEFIFAITSQRQYMLRIELMDWEGNRAYSQYDRFHIGNEKQNYRLYLKGHTGTAGKQSSLILHGADFSTKDADNDNCMCKCALMLTGGWWFDACGPSNLNGMFYTAGQNHGKLNGIKWHYFKGPSYSLRSTTMMIRPLDF
# B8: C1S 438-688 S632A (Homo sapiens, UniProt P09871); chain IIGGSDADIKNFPWQVFFDNPWAGGALINEYWVLTAAHVVEGNREPTMYVGSTSVQTSRLAKSKMLTPEHVFIHPGWKLLEVPEGRTNFDNDIALVRLKDPVKMGPTVSPICLPGTSSDYNLMDGDLGLISGWGRTEKRDRAVRLKAARLPVAPLRKCKEVKVEKPTADAEAYVFTPNMICAGGEKGMDSCKGDAGGAFAVQDPNDKTKFYAAGLVSWGPQCGTYGLYTRVKNYVDWIMKTMQENSTPRED
# B9: EFR3B 716-787 (Homo sapiens, UniProt Q9Y2G0); chain VPAEEITYETLKKAIVDSVAVEEQERERRRQVVEKFQKAPFEEIAAHCGARASLLQSKLNQIFEITIRPPPS
# B10: TGM4 (Heligmosomoides polygyrus); chain GCMPFSDETASYKYLTERSRNDETPAQNDSSGAYPDHTHVKRFCKGLHGEEKTGRYVGICLGSEWVYYQGVQECQDRRCSPLPTNDTVTYEYLKATVNAGINFNITVHPDASGKYPELTYIKRICKNFPADSKVQGHIIGMCYNAEWRFSSTPTCPPSGCPPLPDDGIVFYEYYGYAGNRHTVGRAVSKDSSGNYPPQTHARRRCRALSQKADPGEFVGICYKSGTTGESHWDYYSHIRKCPDPRCKPLETNVSVHYEYFTMTNETGRKEGTPAEVDKGGKYPQHTCVRKFCDKSPYTCSVKGPIFGECLDGQWNFTALDECLNARGCNSDDLFDKLGFEGVMVREEEGSDSYKDDFVRFYATGSKVNAECKGKTVQLECSDGEWHDPGTKTVHRCTKEGIRAL
# B11: KLRK1 73-216 (Homo sapiens, UniProt P26718); sequence looked up; chain IWSAVFLNSLFNQEVQIPLTESYCGPCPKNWICYKNNCYQFFDESKNWYESQASCMSQNASLLKVYSKEDQDLLKLVKSYHWMGLVHIPTNGSWQWEDGSILSPNLLTIIEMQKGDCALYASSFKGYIENCSTPNTYICMQRTV
# B12: PUX6 269-435 (Arabidopsis thaliana, UniProt F4IXN6); chain VTYTVTIWRNGFTVDDDPFKSLDDPENAAFLEYMPEDNKFGVPTTTRSTSCSSQTHQELQTLAGSESTSTEPPLTTTQPPSMSSLVVDPAAPTTSIQLILADSTRIVTQFNTHHTIRDIRCFIDTSRPDGSKDYQLLIMGSPPTPLSDFDQTIEKAGIANSVLVQKF
# B13: Tgfbr3l 36-211 (Mus musculus, UniProt D3YZZ2); sequence looked up; chain RRPLFSLELSDAEDAFPRRAGPLEVPADSHVFVQAALARPSPRWGLALHRCSVTPSSRPTLGPALVLLRGGCPADDSVSFSPPPRPDAASVSRFSFRLRPVFNASVQFLHCQISRCRRRSSHHRRAVRLTPVPLTPPAPLRCLPQDEACAGSSLSLGTDSPHLHMLTQPIVVTIPR
# B14: BRAF kinase 448-723 K723G/P722S/S720E/L716E/S713E/Q709R/L706S/A688R/Y673S/R671A/K630S/V600E/L588N/Q562R (Homo sapiens, UniProt P15056); sequence looked up; chain DDWEIPDGQITVGQRIGSGSFGTVYKGKWHGDVAVKMLNVTAPTPQQLQAFKNEVGVLRKTRHVNILLFMGYSTKPQLAIVTQWCEGSSLYHHLHASETKFEMKKLIDIARQTARGMDYLHAKSIIHRDLKSNNIFLHEDNTVKIGDFGLATEKSRWSGSHQFEQLSGSILWMAPEVIRMQDSNPYSFQSDVYAFGIVLYELMTGQLPYSNINNRDQIIFMVGAGSLSPDLSKVRSNCPKRMKRLMAECLKKKRDERPSFPRILAEIEELARELSG
# Chain of UniProt P54609 (whole entry, looked up): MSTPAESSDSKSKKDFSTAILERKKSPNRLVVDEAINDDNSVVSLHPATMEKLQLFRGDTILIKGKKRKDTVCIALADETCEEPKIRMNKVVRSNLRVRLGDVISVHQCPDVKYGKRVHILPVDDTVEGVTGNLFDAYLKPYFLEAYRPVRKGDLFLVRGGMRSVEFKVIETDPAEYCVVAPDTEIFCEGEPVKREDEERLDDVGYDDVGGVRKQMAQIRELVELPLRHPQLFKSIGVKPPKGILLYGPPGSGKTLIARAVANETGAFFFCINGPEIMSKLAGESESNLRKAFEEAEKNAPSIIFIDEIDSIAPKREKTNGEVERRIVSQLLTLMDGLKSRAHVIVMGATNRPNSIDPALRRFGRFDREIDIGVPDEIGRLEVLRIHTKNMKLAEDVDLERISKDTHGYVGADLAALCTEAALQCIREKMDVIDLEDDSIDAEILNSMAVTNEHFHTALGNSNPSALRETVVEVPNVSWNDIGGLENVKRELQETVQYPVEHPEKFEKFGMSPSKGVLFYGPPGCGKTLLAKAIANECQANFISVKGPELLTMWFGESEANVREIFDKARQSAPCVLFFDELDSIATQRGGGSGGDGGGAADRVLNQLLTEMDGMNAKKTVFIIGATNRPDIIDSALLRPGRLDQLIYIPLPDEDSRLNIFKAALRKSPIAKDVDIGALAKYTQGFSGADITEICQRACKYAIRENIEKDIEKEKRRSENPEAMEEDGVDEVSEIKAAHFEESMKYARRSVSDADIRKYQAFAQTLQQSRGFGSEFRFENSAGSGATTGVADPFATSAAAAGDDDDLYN
# Chain of UniProt P05155 (whole entry, unmodified, looked up): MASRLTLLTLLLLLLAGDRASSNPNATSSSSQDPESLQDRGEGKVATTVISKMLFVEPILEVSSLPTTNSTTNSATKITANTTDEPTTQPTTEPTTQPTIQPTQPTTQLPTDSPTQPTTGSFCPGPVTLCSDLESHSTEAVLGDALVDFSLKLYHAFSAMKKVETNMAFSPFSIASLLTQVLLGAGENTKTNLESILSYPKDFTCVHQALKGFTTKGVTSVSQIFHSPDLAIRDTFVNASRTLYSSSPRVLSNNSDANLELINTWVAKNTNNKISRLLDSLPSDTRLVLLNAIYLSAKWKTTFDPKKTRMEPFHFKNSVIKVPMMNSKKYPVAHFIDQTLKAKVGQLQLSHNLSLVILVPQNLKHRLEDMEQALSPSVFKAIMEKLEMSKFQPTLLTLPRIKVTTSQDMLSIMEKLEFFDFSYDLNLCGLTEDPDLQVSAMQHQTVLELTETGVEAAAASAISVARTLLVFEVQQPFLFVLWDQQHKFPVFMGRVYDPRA
# Chain of UniProt Q29983 (whole entry, looked up): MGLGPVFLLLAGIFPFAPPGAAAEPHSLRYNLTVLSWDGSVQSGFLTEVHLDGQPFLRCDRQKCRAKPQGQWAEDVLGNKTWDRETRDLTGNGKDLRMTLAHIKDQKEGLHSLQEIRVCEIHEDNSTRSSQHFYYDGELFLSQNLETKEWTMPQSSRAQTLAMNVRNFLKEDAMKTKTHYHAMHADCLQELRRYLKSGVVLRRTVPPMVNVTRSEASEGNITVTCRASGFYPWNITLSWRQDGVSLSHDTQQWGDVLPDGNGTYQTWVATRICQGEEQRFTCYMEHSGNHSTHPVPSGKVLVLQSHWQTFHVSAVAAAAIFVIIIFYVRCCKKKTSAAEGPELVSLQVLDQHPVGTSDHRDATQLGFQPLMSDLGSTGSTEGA
# Chain of UniProt P38646 (whole entry, unmodified, looked up): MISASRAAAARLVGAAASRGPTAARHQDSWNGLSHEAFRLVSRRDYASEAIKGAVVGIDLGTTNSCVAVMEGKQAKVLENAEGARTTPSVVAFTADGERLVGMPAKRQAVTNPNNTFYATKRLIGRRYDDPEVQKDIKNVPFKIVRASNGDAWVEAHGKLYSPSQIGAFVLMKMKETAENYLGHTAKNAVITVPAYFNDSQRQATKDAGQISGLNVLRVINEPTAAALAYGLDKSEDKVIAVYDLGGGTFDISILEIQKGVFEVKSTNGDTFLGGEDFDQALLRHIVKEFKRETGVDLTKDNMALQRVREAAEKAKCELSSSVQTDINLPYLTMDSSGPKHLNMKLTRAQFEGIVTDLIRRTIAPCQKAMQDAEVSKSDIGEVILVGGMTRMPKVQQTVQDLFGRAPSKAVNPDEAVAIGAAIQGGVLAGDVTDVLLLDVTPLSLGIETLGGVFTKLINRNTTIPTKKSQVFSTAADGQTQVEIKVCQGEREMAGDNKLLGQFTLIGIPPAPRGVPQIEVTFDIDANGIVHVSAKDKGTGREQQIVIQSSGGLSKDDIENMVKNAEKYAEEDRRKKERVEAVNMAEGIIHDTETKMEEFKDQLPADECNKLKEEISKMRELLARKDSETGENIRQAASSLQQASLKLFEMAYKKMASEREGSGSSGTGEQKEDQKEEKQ
# Chain of UniProt Q02763 (whole entry, looked up): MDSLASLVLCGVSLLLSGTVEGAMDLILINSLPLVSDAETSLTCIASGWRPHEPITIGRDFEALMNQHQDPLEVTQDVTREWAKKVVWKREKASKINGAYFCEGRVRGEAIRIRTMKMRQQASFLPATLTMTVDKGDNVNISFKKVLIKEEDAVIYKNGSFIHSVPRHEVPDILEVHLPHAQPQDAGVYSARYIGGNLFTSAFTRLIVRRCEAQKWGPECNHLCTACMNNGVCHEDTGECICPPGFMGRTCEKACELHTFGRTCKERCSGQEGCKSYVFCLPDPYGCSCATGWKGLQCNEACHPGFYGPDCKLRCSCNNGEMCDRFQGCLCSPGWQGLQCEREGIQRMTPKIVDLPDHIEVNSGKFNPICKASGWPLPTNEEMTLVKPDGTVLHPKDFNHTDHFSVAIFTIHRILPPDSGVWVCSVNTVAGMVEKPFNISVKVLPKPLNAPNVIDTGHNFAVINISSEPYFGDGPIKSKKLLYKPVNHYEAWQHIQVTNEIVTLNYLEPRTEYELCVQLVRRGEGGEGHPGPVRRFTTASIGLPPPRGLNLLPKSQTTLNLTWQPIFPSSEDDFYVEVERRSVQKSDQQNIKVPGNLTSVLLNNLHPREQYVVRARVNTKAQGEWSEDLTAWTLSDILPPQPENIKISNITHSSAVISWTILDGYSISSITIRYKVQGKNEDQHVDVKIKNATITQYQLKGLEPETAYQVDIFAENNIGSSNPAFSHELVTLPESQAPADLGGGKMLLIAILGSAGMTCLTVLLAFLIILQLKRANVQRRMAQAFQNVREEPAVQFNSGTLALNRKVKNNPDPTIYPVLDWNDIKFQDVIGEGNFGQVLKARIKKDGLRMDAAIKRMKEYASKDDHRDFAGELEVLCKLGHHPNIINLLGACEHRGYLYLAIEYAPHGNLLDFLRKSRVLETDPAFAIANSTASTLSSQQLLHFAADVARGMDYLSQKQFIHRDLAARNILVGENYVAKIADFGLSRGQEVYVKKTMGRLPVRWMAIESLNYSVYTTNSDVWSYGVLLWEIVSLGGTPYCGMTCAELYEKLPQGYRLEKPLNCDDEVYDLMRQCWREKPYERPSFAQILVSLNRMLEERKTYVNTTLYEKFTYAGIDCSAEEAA
# Chain of UniProt P05111 (whole entry, looked up): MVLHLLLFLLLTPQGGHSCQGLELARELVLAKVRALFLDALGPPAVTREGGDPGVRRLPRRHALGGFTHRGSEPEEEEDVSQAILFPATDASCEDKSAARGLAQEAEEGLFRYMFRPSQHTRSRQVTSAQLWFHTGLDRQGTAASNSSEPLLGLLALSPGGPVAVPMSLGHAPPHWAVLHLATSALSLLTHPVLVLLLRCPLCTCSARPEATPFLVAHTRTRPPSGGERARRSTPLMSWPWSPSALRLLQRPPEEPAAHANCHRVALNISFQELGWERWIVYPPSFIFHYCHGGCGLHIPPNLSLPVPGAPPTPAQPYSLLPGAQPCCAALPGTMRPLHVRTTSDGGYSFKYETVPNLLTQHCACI
Substance,tested on,test,test system,setting,how to read,endpoint,value
CALLLSAPRR (GOT2 (Gallus gallus); fluorescein label),"HSPA9 47-555 (Homo sapiens, UniProt P38646)",FP,peptide,,,koff,0.00267 s⁻¹
B1 (TEPSIN W188S/D189S/E190S/L191S),"MAP1LC3B 1-120 (Homo sapiens, UniProt Q9GZQ8)",BLI,,,,koff,0.078 s⁻¹ and 0.085 s⁻¹ and 0.068 s⁻¹ and 0.077 s⁻¹
B2,MAP2K1,BLI,,,,koff,0.00116 s⁻¹
B3 (IgG L:I27A),IL13,SPR,antibody,,,koff,0.00257 s⁻¹
"ACAWCLRGTICCSG (MP5.4.3; Cys2-Cys12, Cys5-Cys11 disulfides)","CTRB1 α-chymotrypsin (Bos taurus, UniProt P00766)",SPR,peptide,,,koff,0.0041 s⁻¹
"EEEWAREFGAQLRRAADDLNAQYERRR (PUMA residues 130-156 M144A/I137F; N-acetyl, C-terminal amide)",Mcl1 152-308,SPR,peptide,,,koff,0.0275 ± 0.0022 s⁻¹
B4 (IgG),IL13,SPR,antibody,,,koff,0.000325 s⁻¹
B5 (EFR3A 721-791),PI4KA/TTC7A/FAM126A TTC7A/FAM126A,BLI,,,,koff,0.000273 s⁻¹
GSGAGHETIV,human MAGI1-2/6 PDZ construct (MBP fusion),automated holdup,"peptide, crude extract","concentration not given, corrected by standard peak, unit not given","relative to: biotin control resin, higher = stronger binding",binding intensity,0.0717
B6 (BRAF kinase 442-724 V600E),MAP2K1,BLI,,,,koff,0.00067 s⁻¹
ptsH fragment (Escherichia coli) (sequence not shown),ptsI fragment (Escherichia coli),NMR relaxation dispersion,,,,koff,8900 s⁻¹
FGB dimer (Homo sapiens),CDH2 extracellular domain 1-551 (Homo sapiens),SPR,,"Langmuir fit, added: CaCl2",,koff,0.00811 s⁻¹
B7 (ANGPT1 283-498),"TEK 23-748 (Homo sapiens, UniProt Q02763)",SPR,,,,koff,0.0811 s⁻¹
B8 (C1S 438-688 S632A),"SERPING1 111-500 K390A/Q392A (Homo sapiens, UniProt P05155)",SPR,,added: Ca2+,,koff,0.0731 s⁻¹
B9 (EFR3B 716-787),TTC7B/FAM126A FAM126A 1-308,BLI,,,,koff,0.000219 s⁻¹
"CTLA4 extracellular domain, monomer (Homo sapiens)",ipilimumab Fab,SPR,,,,koff,0.0281 s⁻¹ and 0.0206 s⁻¹
B10 (TGM4),TGFBR1 extracellular domain (Homo sapiens),SPR,,,,koff,0.00073 s⁻¹
B11 (KLRK1 73-216),"MICA high-affinity allele 24-307 (Homo sapiens, UniProt Q29983)",SPR,Fc fusion,,,koff,0.0033 s⁻¹
"MBL-A mature, hydroxylysine, hydroxyproline in collagen (Rattus norvegicus, UniProt P19999)",C1r/C1s CUB1-EGF-CUB2 (Homo sapiens),SPR,,added: CaCl2 140 mM,,koff,0.00268 s⁻¹
CTTACTTACTTA (dsDNA),"Fibroin-modulator-binding protein-1 99-193 (Bombyx mori, UniProt Q5FBS0)",ITC,"double-stranded DNA, one strand shown",,,Kd,3.19 ± 0.42 µM
B12 (PUX6 269-435),"CDC48A 1-190 (Arabidopsis thaliana, UniProt P54609)",BLI,,25 °C,,koff,0.00062 s⁻¹
GSGAGKETEC,human MAGI1-2/6 PDZ construct (MBP fusion),automated holdup,"peptide, crude extract","concentration not given, corrected by standard peak, unit not given","relative to: biotin control resin, higher = stronger binding",binding intensity,-0.0972
DARPin G3 fragment,ERBB2 23-652 (UniProt P04626),SPR,,,,koff,4.93e-05 s⁻¹ and 5.45e-05 s⁻¹ and 4.84e-05 s⁻¹ and 6.28e-05 s⁻¹
B13 (Tgfbr3l 36-211),inhibin B mature (UniProt P05111),SPR,,,,koff,0.014 s⁻¹
"EEEWAREIGAQLRRAGDDLNAQYERRR (PUMA residues 130-156 M144A/A145G; N-acetyl, C-terminal amide)",Mcl1 152-308,SPR,peptide,,,koff,0.0002 ± 2e-05 s⁻¹
B14,MAP2K1,BLI,,,,koff,0.00169 s⁻¹

# For quick reference, copied from above:
Substance,tested on,test,test system,setting,how to read,endpoint,value
B1 (TEPSIN W188S/D189S/E190S/L191S),"MAP1LC3B 1-120 (Homo sapiens, UniProt Q9GZQ8)",BLI,,,,koff,0.078 s⁻¹ and 0.085 s⁻¹ and 0.068 s⁻¹ and 0.077 s⁻¹
B8 (C1S 438-688 S632A),"SERPING1 111-500 K390A/Q392A (Homo sapiens, UniProt P05155)",SPR,,added: Ca2+,,koff,0.0731 s⁻¹
